Results collected from several papers.
Lines come from different studies, so protocols differ. ± marks the error that the study gave.
Organism: HIV-1

Molecule = Cc1ccc(S(=O)(=O)N2C(=O)CSC2c2ccc(C(C)C)cc2)cc1 (stereo not drawn); observed = viral cytopathicity; method = MTT; cell line = MT-4; strain = IIIB; EC50 = > 125 µM
Molecule = CC(=NNC(=O)CN1c2c(-c3ccccc3)n[nH]c2-c2ccccc2S1(=O)=O)c1ccc2c(c1)OCCO2; observed = viral replication; cell line = PBMC; EC50 = > 100 µM
Molecule = COc1cccc(C=NNC(=O)CN2c3c(n[nH]c3-c3cccc(Cl)c3)-c3ccccc3S2(=O)=O)c1; observed = viral replication; cell line = PBMC; EC50 = > 10 µM
Molecule = COc1ccc(-n2c([C@H](Cc3ccccc3)NC(=O)CN3CCN(S(=O)(=O)c4ccc([N+](=O)[O-])cc4)CC3=O)nc3cc(Br)ccc3c2=O)cc1; observed = viral replication; method = MTT; cell line = MT-4; strain = IIIB; EC50 = 2.4 ± 0.81 µM
Molecule = Cc1cc(C#N)cc(C)c1Oc1nc(Nc2ccc(C#N)cc2)nc(N)c1Br; observed = viral replication; cell line = MT4; strain = IIIB wild type; EC50 = 0.00313 ± 0.000902 µM
Molecule = Cc1ccc(N2C(=O)CCC2(C#N)c2ccc(OCc3ccc(Cl)cc3Cl)cc2)cc1 (stereo not drawn); observed = viral replication; cell line = human PBMC; strain = LAI; EC50 = 5.3 µM
Molecule = COc1ccc(-n2c([C@H](Cc3ccccc3)NC(=O)CN3CCN(S(=O)(=O)c4ccc([N+](=O)[O-])cc4)CC3=O)nc3cc(Cl)ccc3c2=O)cc1; observed = viral replication; method = MTT; cell line = MT-4; strain = IIIB; EC50 = 2.16 ± 0.26 µM
Molecule = Nc1c(C(=O)NCc2ccc(F)cc2F)c(=O)n(O)c2ncc(/C=C/C(=O)NCCO)cc12; observed = viral infectivity; method = single-round infection; cell line = HOS; strain = integrase wild type; EC50 = ≥ 0.2 µM
Molecule = Cc1cc(/C=C/C#N)cc(C)c1Oc1ccc(N)c(Nc2ccc(C#N)cc2)c1; observed = viral replication; cell line = TZM-bl; strain = NL4-3; EC50 = ≤ 0.0007 µM
Molecule = O=C(CN1c2c(n[nH]c2-c2cccc(Cl)c2)-c2ccccc2S1(=O)=O)NN=Cc1ccc(Cl)cc1; observed = viral replication; cell line = PBMC; EC50 = < 5 µM
Molecule = COc1ccc(-n2c([C@H](Cc3cc(F)cc(F)c3)NC(=O)CN3CCN(S(=O)(=O)c4ccc([N+](=O)[O-])cc4)CC3=O)nc3cc(S(C)(=O)=O)ccc3c2=O)cc1; observed = viral replication; method = MTT; cell line = MT-4; strain = IIIB; EC50 = 1.84 ± 0.25 µM
Molecule = CC(=NNC(=O)CN1c2c(-c3ccccc3)n[nH]c2-c2ccccc2S1(=O)=O)c1cccs1; observed = viral replication; cell line = PBMC; EC50 = < 20 µM
Molecule = Cc1ccc(NC(C#N)c2ccc(OCc3ccc(Cl)cc3Cl)cc2)cc1 (stereo not drawn); observed = viral replication; cell line = human PBMC; strain = LAI; EC50 = < 5 µM
Molecule = CC(=NNC(=O)CN1c2c(-c3ccccc3)n[nH]c2-c2ccccc2S1(=O)=O)c1ccc[nH]1; observed = viral replication; cell line = PBMC; EC50 = > 100 µM
Molecule = CC[C@H](C)CN(C[C@@H](O)[C@H](Cc1ccccc1)NC(=O)[C@@H](NC(C)=O)[C@@H](C)CC)S(=O)(=O)c1ccc2ncsc2c1; observed = viral replication; method = Monogram susceptibility; strain = wild-type control strain; EC50 = 0.0027 µM
Molecule = CC(=O)OCC(COP(=O)(N[C@@H](C)C(=O)OCc1ccccc1)Oc1ccccc1)OCn1cnc2c(Cl)nc(N)nc21 (stereo partly drawn); observed = viral replication; cell line = MT-4; time = 72 h; EC50 = 2 µM
Molecule = CC(=NNC(=O)CN1c2c(-c3ccccc3)n[nH]c2-c2ccccc2S1(=O)=O)c1cc2ccccc2oc1=O; observed = viral replication; cell line = PBMC; EC50 = 22.9 µM
Molecule = Nc1ccc(S(=O)(=O)N2CCN(CC(=O)N[C@@H](Cc3cc(F)cc(F)c3)c3nc4ccccc4c(=O)n3-c3ccc(S(=O)(=O)N4CCS(=O)(=O)CC4)cc3)C(=O)C2)cc1; observed = viral replication; method = MTT; cell line = MT-4; strain = IIIB; EC50 = 1.51 ± 1.34 µM
Molecule = Cc1ccc(S(=O)(=O)N2C(=O)CSC2c2ccccc2O)cc1 (stereo not drawn); observed = viral cytopathicity; method = MTT; cell line = MT-4; strain = IIIB; EC50 = > 125 µM
Molecule = COc1ccc(CNC(=O)Cn2nc3c(c2C)N(C)S(=O)(=O)c2ccccc2-3)cc1; observed = viral replication; cell line = PBMC; EC50 = < 20 µM
Molecule = Cc1ccc(S(=O)(=O)N2C(=O)CSC2c2cccc([N+](=O)[O-])c2)cc1 (stereo not drawn); observed = viral cytopathicity; method = MTT; cell line = MT-4; strain = IIIB; EC50 = > 125 µM
Molecule = Cc1cc(/C=C/C#N)cc(C)c1Oc1cc(Nc2ccc(C#N)cc2)c(N)cc1[N+](=O)[O-]; observed = viral replication; cell line = TZM-bl; strain = NL4-3; EC50 = ≤ 0.0007 µM
Molecule = NC(=O)CCNC(=O)c1ccccc1S; observed = viral replication; cell line = human monocytes/macrophages; strain = subtype B BaL, CCR5-tropic; EC50 = 18.6 µM
Molecule = delavirdine; observed = viral replication; cell line = MT-2; strain = IIIB wild type; EC50 = 0.053 µM
Molecule = O=C(CN1c2c(n[nH]c2-c2cccc(Cl)c2)-c2ccccc2S1(=O)=O)NN=Cc1c(Cl)cccc1Cl; observed = viral replication; cell line = PBMC; EC50 = 12.5 µM
Molecule = COc1cc(Cl)ccc1Oc1cc(Cl)cc(C#N)c1; observed = viral replication; cell line = MT-2; strain = IIIB wild type; EC50 = 9.9 µM
Molecule = CC(=NNC(=O)CN1c2c(-c3ccccc3)n[nH]c2-c2ccccc2S1(=O)=O)c1cc(C)oc1C; observed = viral replication; cell line = PBMC; EC50 = > 100 µM
Molecule = COc1cc(C=NNC(=O)CN2c3c(n[nH]c3-c3cccc(Cl)c3)-c3ccccc3S2(=O)=O)cc(OC)c1OC; observed = viral replication; cell line = PBMC; EC50 = 5.8 µM
Molecule = CC(=NNC(=O)CN1c2c(-c3ccccc3)n[nH]c2-c2ccccc2S1(=O)=O)c1sccc1Br; observed = viral replication; cell line = PBMC; EC50 = > 100 µM
Molecule = c1ccc(SSc2ccccn2)nc1; observed = virucidal activity; cell line = CEM-SS; strain = IIIB; time = 20 min; notes = virions pretreated then washed; EC50 = 2.26 µM
Molecule = CC(=NNC(=O)CN1c2c(-c3ccccc3)n[nH]c2-c2ccccc2S1(=O)=O)c1ccsc1; observed = viral replication; cell line = PBMC; EC50 = 24.3 µM
Molecule = O=c1[nH]cnc2c1ncn2[C@H]1CC[C@@H](CO)O1; observed = viral cytopathicity; method = MTT; cell line = MT-4; strain = IIIB; EC50 = 18 µM
Molecule = O=C(CN1c2c(n[nH]c2-c2cccc(Cl)c2)-c2ccccc2S1(=O)=O)NN=Cc1ccc([N+](=O)[O-])cc1; observed = viral replication; cell line = PBMC; EC50 = 7.5 µM
Molecule = N=C(N)NCCC[C@H](NC(=O)[C@H](CCCNC(=N)N)NC(=O)[C@H](CCCNC(=N)N)NC(=O)[C@H](CCCNC(=N)N)NC(=O)[C@H](CCCNC(=N)N)NC(=O)[C@H](CCCNC(=N)N)NC(=O)[C@H](CCCNC(=N)N)NC(=O)CCCCCCCCCCCCC(=O)OC[C@@H]1O[C@H](n2ccc(N)nc2=O)CS1)C(=O)O; observed = viral replication; method = MAGI single-round infection; strain = IIIB, X4-tropic; notes = cell-free virus; EC50 = 8.7 µM
Molecule = CC(=NNC(=O)CN1c2c(-c3ccccc3)n[nH]c2-c2ccccc2S1(=O)=O)c1ccc(Br)s1; observed = viral replication; cell line = PBMC; EC50 = > 100 µM
Molecule = O=C(C1=C(O)c2ccccc2S(=O)(=O)N1)c1cccc(Cl)c1; observed = viral replication; cell line = PBMC; EC50 = > 100 µM
Molecule = Cc1cc(C#N)cc(C)c1Oc1nc(Nc2ccc(C#N)cc2)nc(N)c1Br; observed = viral replication; method = MTT; cell line = MT-4; strain = IIIB, wild type; EC50 = 0.004 µM
Molecule = Cc1ccc(S(=O)(=O)N2C(=O)CSC2c2ccccc2[N+](=O)[O-])cc1 (stereo not drawn); observed = viral cytopathicity; method = MTT; cell line = MT-4; strain = IIIB; EC50 = > 125 µM
Molecule = CC(C)CN(C[C@@H](O)[C@H](Cc1ccccc1)NC(=O)O[C@H]1CCOC1)S(=O)(=O)c1ccc(N)cc1; observed = viral replication; method = Monogram susceptibility; strain = wild-type control strain; EC50 = 0.0055 µM
Molecule = O=C(CN1CCN(S(=O)(=O)c2ccc([N+](=O)[O-])cc2)CC1=O)N[C@@H](Cc1cc(F)cc(F)c1)c1nc2ccccc2c(=O)n1-c1ccc(S(=O)(=O)N2CCOCC2)cc1; observed = viral replication; method = MTT; cell line = MT-4; strain = IIIB; EC50 = 0.16 ± 0.09 µM
Molecule = O=C(CN1c2c(n[nH]c2-c2cccc(Cl)c2)-c2ccccc2S1(=O)=O)NN=Cc1ccc(F)cc1; observed = viral replication; cell line = PBMC; EC50 = 9.2 µM
Molecule = Cc1ccc(-c2ccc(/C=C3\SC(=S)N(CCc4ccccc4)C3=O)o2)cc1C(=O)O; observed = viral replication; cell line = MT-2; EC50 = < 0.1 µM
Molecule = Cc1ccc(N2C(=O)CCC2(CN)c2ccc(OCc3ccccc3)cc2)cc1 (stereo not drawn); observed = viral replication; cell line = human PBMC; strain = LAI; EC50 = 10.8 µM
Molecule = COC(=O)CN1C(C(=O)c2cccc(Cl)c2)=C(O)c2ccccc2S1(=O)=O; observed = viral replication; cell line = PBMC; EC50 = 20 µM
Molecule = Cc1c2c(nn1CC(=O)NCc1ccccc1Br)-c1ccccc1S(=O)(=O)N2C; observed = viral replication; cell line = PBMC; EC50 = < 20 µM
Molecule = N=C(N)NCCC[C@H](NC(=O)[C@H](CCCNC(=N)N)NC(=O)[C@H](CCCNC(=N)N)NC(=O)[C@H](CCCNC(=N)N)NC(=O)[C@H](CCCNC(=N)N)NC(=O)[C@H](CCCNC(=N)N)NC(=O)[C@H](CCCNC(=N)N)NC(=O)CCCCCCCCCCCCC(=O)OC[C@@H]1O[C@H](n2cc(F)c(N)nc2=O)CS1)C(=O)O; observed = viral replication; method = MAGI single-round infection; strain = IIIB, X4-tropic; notes = cell-free virus; EC50 = 3 µM
Molecule = COC(=O)CNc1c(C(=O)NCc2ccc(F)cc2F)c(=O)n(O)c2ncccc12; observed = viral infectivity; method = single-round infection; cell line = HOS; strain = integrase wild type; EC50 = 0.0038 ± 0.0012 µM
Molecule = O=C(O)c1cc(-c2ccc(/C=C3\SC(=S)N(CCc4ccccc4)C3=O)o2)ccc1Cl; observed = viral replication; cell line = MT-2; EC50 = < 0.1 µM
Molecule = Cc1cc(C#N)cc(C)c1Oc1nc(NC2CCN(Cc3ccc(S(N)(=O)=O)cc3)CC2)ncc1-c1ccoc1; observed = viral replication; cell line = MT4; strain = IIIB, wild type; EC50 = 0.0028 µM
Molecule = N#Cc1ccc(Oc2cc(Cl)ccc2Cl)c(OCc2ccncc2)c1; observed = viral replication; cell line = MT-2; strain = IIIB wild type; EC50 = 12 µM
Molecule = COc1ccc(-n2c([C@H](Cc3cc(F)cc(F)c3)NC(=O)CN3CCN(S(=O)(=O)c4ccc([N+](=O)[O-])cc4)CC3=O)nc3ccccc3c2=O)cc1; observed = viral replication; method = MTT; cell line = MT-4; strain = IIIB; EC50 = 0.53 ± 0.15 µM
Molecule = Cc1ccc(S(=O)(=O)N2C(=O)CSC2c2ccc(Cl)cc2)cc1 (stereo not drawn); observed = viral cytopathicity; method = MTT; cell line = MT-4; strain = IIIB; EC50 = > 125 µM
Molecule = O=C(CN1CCN(S(=O)(=O)c2ccc([N+](=O)[O-])cc2)CC1=O)N[C@@H](Cc1ccccc1)c1nc2ccccc2c(=O)n1-c1ccc(S(=O)(=O)N2CCOCC2)cc1; observed = viral replication; method = MTT; cell line = MT-4; strain = IIIB; EC50 = 1.21 ± 0.65 µM
Molecule = C[C@H](NP(=O)(OCCOCn1cnc2c(=O)[nH]c(N)nc21)Oc1ccccc1)C(=O)OCc1ccccc1 (stereo partly drawn); observed = viral replication; EC50 = 0.6 µM

Repeated from above:
Molecule = Cc1ccc(S(=O)(=O)N2C(=O)CSC2c2cccc([N+](=O)[O-])c2)cc1 (stereo not drawn); observed = viral cytopathicity; method = MTT; cell line = MT-4; strain = IIIB; EC50 = > 125 µM
Molecule = Cc1cc(/C=C/C#N)cc(C)c1Oc1cc(Nc2ccc(C#N)cc2)c(N)cc1[N+](=O)[O-]; observed = viral replication; cell line = TZM-bl; strain = NL4-3; EC50 = ≤ 0.0007 µM
Molecule = NC(=O)CCNC(=O)c1ccccc1S; observed = viral replication; cell line = human monocytes/macrophages; strain = subtype B BaL, CCR5-tropic; EC50 = 18.6 µM
Molecule = delavirdine; observed = viral replication; cell line = MT-2; strain = IIIB wild type; EC50 = 0.053 µM
Molecule = O=C(CN1c2c(n[nH]c2-c2cccc(Cl)c2)-c2ccccc2S1(=O)=O)NN=Cc1c(Cl)cccc1Cl; observed = viral replication; cell line = PBMC; EC50 = 12.5 µM
Molecule = COc1cc(Cl)ccc1Oc1cc(Cl)cc(C#N)c1; observed = viral replication; cell line = MT-2; strain = IIIB wild type; EC50 = 9.9 µM
Molecule = CC(=NNC(=O)CN1c2c(-c3ccccc3)n[nH]c2-c2ccccc2S1(=O)=O)c1cc(C)oc1C; observed = viral replication; cell line = PBMC; EC50 = > 100 µM
Molecule = COc1cc(C=NNC(=O)CN2c3c(n[nH]c3-c3cccc(Cl)c3)-c3ccccc3S2(=O)=O)cc(OC)c1OC; observed = viral replication; cell line = PBMC; EC50 = 5.8 µM
